Assay results gathered from unrelated publications.
Lines come from different studies, so protocols differ. ± marks the error that the study gave.
Target: Acetylcholinesterase (ACHE, Homo sapiens, UniProt P22303)
Sequence of UniProt P22303 (whole entry, looked up): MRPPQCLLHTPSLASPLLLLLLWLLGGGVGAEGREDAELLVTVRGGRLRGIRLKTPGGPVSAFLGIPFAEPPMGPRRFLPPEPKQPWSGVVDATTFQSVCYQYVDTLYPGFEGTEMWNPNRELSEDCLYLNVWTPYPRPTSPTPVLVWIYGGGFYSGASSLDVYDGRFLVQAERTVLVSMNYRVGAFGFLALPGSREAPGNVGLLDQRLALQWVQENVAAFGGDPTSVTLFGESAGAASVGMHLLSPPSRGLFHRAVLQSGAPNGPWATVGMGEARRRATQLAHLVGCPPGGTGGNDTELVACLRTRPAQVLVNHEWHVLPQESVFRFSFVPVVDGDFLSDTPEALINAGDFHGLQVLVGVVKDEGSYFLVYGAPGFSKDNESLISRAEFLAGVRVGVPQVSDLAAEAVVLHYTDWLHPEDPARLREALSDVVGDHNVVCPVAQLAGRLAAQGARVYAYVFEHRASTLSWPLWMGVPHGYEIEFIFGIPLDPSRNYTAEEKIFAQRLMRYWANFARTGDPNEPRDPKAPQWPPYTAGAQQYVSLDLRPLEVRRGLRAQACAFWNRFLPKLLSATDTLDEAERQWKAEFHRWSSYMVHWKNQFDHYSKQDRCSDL

| Structure (SMILES) | assay | system | setting | how to read | measurement | value |
| --- | --- | --- | --- | --- | --- | --- |
| O=C(O)/C=C/c1ccc(O)cc1 | inhibitor | – | 500 µg/mL | – | inhibition | 74.1 ± 0.9% |
| O=c1ccoc2ccc(OCCCCCN3CCCCC3)cc12 | uncompetitive inhibitor, Ellman | human erythrocyte ghosts | – | – | αKi | 3.8 ± 0.61 µM |
| COc1cc2c(cc1OC)C(=O)C(=Cc1ccc(N3CCN(C)CC3)cc1)C2 | non-competitive inhibitor, secondary plot | – | – | – | Ki' | 0.62 µM |
| O=c1ccoc2ccc(OCCCCCN3CCCCCC3)cc12 | uncompetitive inhibitor, Ellman | human erythrocyte ghosts | – | – | αKi | 13.1 ± 2.5 µM |
| NNC(=O)c1ccc(-n2nc(-c3ccccc3O)nc2-c2ccccc2O)cc1 | modified Ellman's method | – | concentration not given | – | enzyme inhibition | inhibited |
| O=C(O)CCCC(=O)O | enzyme activity, inhibitor | – | 1000 µg/mL | – | inhibition | 79.1 ± 1.42% |
| CCS(=O)(=O)N1CCN(CC(=O)Nc2ccc(/C=C/C(=O)c3ccc(OC)c(OC)c3)cc2)CC1 | enzyme activity, inhibitor, Ellman | – | 1 mM | – | inhibition | 88.9% |
| COc1cc2c(cc1OC)C(=O)/C(=C\c1ccc([N+](C)(C)C)cc1)C2 | non-competitive inhibitor, secondary plot | – | – | – | Ki' | 15 µM |
| C=CCc1ccc(OC(=O)CSc2nnc(Cn3cnc4c3c(=O)n(C)c(=O)n4C)o2)c(OC)c1 | enzyme activity, inhibitor, Ellman | – | 25 µM | – | inhibition | 41.3% |
| COc1cc2c(cc1OC)C(=O)/C(=C\c1ccc(N3CCOCC3)cc1)C2 | non-competitive inhibitor, secondary plot | – | – | – | Ki' | 1000 µM |
| O=C1C=C(OCCCCCCCCn2cc(CNc3ccc4nccnc4c3)nn2)C(=O)c2ccccc21 | inhibitor, Lineweaver-Burk | – | unit not given | above one favours free enzyme | alpha constant | 4.18 |
| S=C(NCc1ccccn1)NCc1ccccn1 | enzyme activity, inhibitor | – | 125 µg/mL | – | inhibition | 52.5% |
| O=c1c(O)c(-c2cc(O)ccc2O)oc2cc(O)cc(O)c12 | enzyme activity, inhibitor | – | 1000 µg/mL | – | inhibition | 82.7 ± 2.2% |
| COc1cc2c(cc1OC)C(=O)C(=Cc1ccc(N3CC[N+](C)(C)CC3)cc1)C2 | non-competitive inhibitor, secondary plot | – | – | – | Ki' | 0.29 µM |
| Cc1ccc(C(C)C)c(OC(=O)CSc2nnc(Cn3cnc4c3c(=O)n(C)c(=O)n4C)o2)c1 | enzyme activity, inhibitor, Ellman | – | 25 µM | – | inhibition | 61.1% |
| O=C(O)/C=C/c1cc(O)cc(O)c1 | enzyme activity, inhibitor | – | 250 µg/mL | – | inhibition | 65.2 ± 1.14% |

For quick reference, copied from above:
| Structure (SMILES) | assay | system | setting | how to read | measurement | value |
| --- | --- | --- | --- | --- | --- | --- |
| C=CCc1ccc(OC(=O)CSc2nnc(Cn3cnc4c3c(=O)n(C)c(=O)n4C)o2)c(OC)c1 | enzyme activity, inhibitor, Ellman | – | 25 µM | – | inhibition | 41.3% |
| COc1cc2c(cc1OC)C(=O)/C(=C\c1ccc(N3CCOCC3)cc1)C2 | non-competitive inhibitor, secondary plot | – | – | – | Ki' | 1000 µM |
| O=C1C=C(OCCCCCCCCn2cc(CNc3ccc4nccnc4c3)nn2)C(=O)c2ccccc21 | inhibitor, Lineweaver-Burk | – | unit not given | above one favours free enzyme | alpha constant | 4.18 |
